Published values from different studies.
Parts stem from different laboratories: compare values within a part only. Substitutions count along the parent as printed.

Series 1
Target: UBE2T UBC core domain (UniProt Q9NPD8)
Technique: yeast two-hybrid
Medium: yeast
Notes: mostly zero background
Relative to: not given
Direction: higher = stronger interaction
B1: UHRF2 RING domain (UniProt Q96PU4); chain CGGDPEKKCHSCSCRVCGGKHEPNMQLLCDECNVAYHIYCLNPPLDKVPEEEYWYCPSCKTDSSEVVKAGER
B2: PHF21A RING domain (UniProt Q96BD5); chain SPTSTDGDIHEDFCSVCRKSGQLLMCDTCSRVYHLDCLDPPLKTIPKGMWICPRCQDQMLKKEEAIPW
B3: ZNF598 RING domain (UniProt Q86UK7); chain AAAPERGGGSCVLCCGDLEATALGRCDHPVCYRCSTKMRVLCEQRYCAVCREELRQVVFGK
B4: ARK2C RING domain (UniProt Q6ZSG1); chain EGEESDTDEKCTICLSMLEDGEDVRRLPCMHLFHQLCVDQWLAMSKKCPICRVDIETQLGAD
B5: CUL9 RING domain (UniProt Q8IWT3); chain AQAVPVRPDHCPVCVSPLGCDDDLPSLCCMHYCCKSCWNEYLTTRIEQNLVLNCTCPIADCPAQPTGAFIR
B6: IRF2BPL RING domain (UniProt Q9H1B7); chain SPMANSGPLCCTICHERLEDTHFVQCPSVPSHKFCFPCSRESIKAQGATGEVYCPSGEKCPLVGSNVP
B7: RNF170 RING domain (UniProt Q96K19); chain TRQQFYTDMYCPICLHQASFPVETNCGHLFCGACIIAYWRYGSWLGAISCPICRQTVTLLLTVF
B8: TRIM69 RING domain (UniProt Q86WT6); chain VIQDITMELHCPLCNDWFRDPLMLSCGHNFCEACIQDFWRLQAKETFCPECKMLCQYNNCTF
B9: MID1 RING domain (UniProt O15344); chain METLESELTCPICLELFEDPLLLPCAHSLCFNCAHRILVSHCATNESVESITAFQCPTCRHVITLSQRGL
B10: TRIM63 RING domain (UniProt Q969Q1); chain PMENLEKQLICPICLEMFTKPVVILPCQHNLCRKCANDIFQAANPYWTSRGSSVSMSGGRFRCPTCRHEVIMDRHGV
Target sequence (chain): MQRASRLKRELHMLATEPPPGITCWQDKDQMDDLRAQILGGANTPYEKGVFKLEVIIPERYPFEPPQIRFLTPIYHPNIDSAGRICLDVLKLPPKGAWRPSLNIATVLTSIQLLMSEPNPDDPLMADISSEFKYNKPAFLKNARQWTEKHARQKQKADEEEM
Under “lacZ reporter activity”, `B1 (UHRF2 RING domain)` is recorded as 0.
`FASPPDSNFVCSVCHGVLKRPARLPCSHIFCKKCILRWLARQKTCPCCRKEVKRKKVVH (RNF151 RING domain (UniProt Q2KHN1))`: “lacZ reporter activity” 0.
`B2 (PHF21A RING domain)` — result for “lacZ reporter activity”: 0.
`B3 (ZNF598 RING domain)` — result for “lacZ reporter activity”: 0.
`B4 (ARK2C RING domain)` — result for “lacZ reporter activity”: 0.
Under “lacZ reporter activity”, `FPEHFVKSISCQICEHILADPVETNCKHVFCRVCILRCLKVMGSYCPSCRYPCFPTDLES (RAG1 RING domain (UniProt P15918))` is recorded as 0.
`B5 (CUL9 RING domain)` — result for “lacZ reporter activity”: 0.
For `DAIPSLSECQCGICMEILVEPVTLPCNHTLCKPCFQSTVEKASLCCPFCRRRVSSWTRYH (RNF168 RING domain (UniProt Q8IYW5))`, “lacZ reporter activity” read 0.
Under “lacZ reporter activity”, `B6 (IRF2BPL RING domain)` is recorded as 0.
For `QHHELTSLFECPVCFDYVLPPILQCQAGHLVCNQCRQKLSCCPTCRGALTPSIRNL (SIAH2 RING domain (UniProt O43255))`, “lacZ reporter activity” read 0.
Under “lacZ reporter activity”, `RLTMMWEEVTCPICLDPFVEPVSIECGHSFCQECISQVGKGGGSVCPVCRQRFLLKNLRP (TRIM21 RING domain (UniProt P19474))` is recorded as 0.
Under “lacZ reporter activity”, `B7 (RNF170 RING domain)` is recorded as 0.
Under “lacZ reporter activity”, `B8 (TRIM69 RING domain)` is recorded as 0.
`B9 (MID1 RING domain)` — result for “lacZ reporter activity”: 0.
`B10 (TRIM63 RING domain)`: “lacZ reporter activity” 0.

Series 2
Target: CCNB2, cyclin fold, Cln2 fusion (human)
Technique: yeast growth competition, sequencing
Medium: yeast
Notes: weak parent motif
Relative to: not given
Direction: higher = stronger binding
Starting sequence: REV3L docking peptide (human); PPVIIKYIIINRF; partner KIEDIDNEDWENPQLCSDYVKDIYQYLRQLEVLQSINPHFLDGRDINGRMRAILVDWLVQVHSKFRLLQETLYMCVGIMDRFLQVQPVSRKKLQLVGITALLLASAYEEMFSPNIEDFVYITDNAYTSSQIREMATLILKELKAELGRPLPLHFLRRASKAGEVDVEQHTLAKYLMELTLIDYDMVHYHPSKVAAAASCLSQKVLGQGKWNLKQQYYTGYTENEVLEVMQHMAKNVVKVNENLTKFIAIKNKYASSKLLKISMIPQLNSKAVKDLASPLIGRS
`K6A`: “normalised enrichment score” 0.417.
Under “normalised enrichment score”, `I8A` is recorded as 0.186.
`I10A`: “normalised enrichment score” 0.234.
`R12A`: “normalised enrichment score” 0.604.
`P2A`: “normalised enrichment score” 0.951.
Under “normalised enrichment score”, `I5A` is recorded as 0.279.
Under “normalised enrichment score”, `F13A` is recorded as 0.581.

Series 3
Target: ABI1, truncated, D143A, DHFR fusion (Arabidopsis thaliana)
Technique: DHFR PCA, deep sequencing
Medium: yeast
Notes: methotrexate growth selection, single substitutions
Together with: (+)-ABA 1.4 µM
Relative to: wild-type fitted maximum
Direction: higher = stronger binding
Starting sequence: PYL1, truncated, DHFR fusion (Arabidopsis thaliana); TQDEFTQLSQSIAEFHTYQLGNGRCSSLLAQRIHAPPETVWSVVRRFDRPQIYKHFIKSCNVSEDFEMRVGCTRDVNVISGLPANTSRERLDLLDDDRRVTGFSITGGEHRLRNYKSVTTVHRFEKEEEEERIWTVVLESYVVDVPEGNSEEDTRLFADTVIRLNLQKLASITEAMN; partner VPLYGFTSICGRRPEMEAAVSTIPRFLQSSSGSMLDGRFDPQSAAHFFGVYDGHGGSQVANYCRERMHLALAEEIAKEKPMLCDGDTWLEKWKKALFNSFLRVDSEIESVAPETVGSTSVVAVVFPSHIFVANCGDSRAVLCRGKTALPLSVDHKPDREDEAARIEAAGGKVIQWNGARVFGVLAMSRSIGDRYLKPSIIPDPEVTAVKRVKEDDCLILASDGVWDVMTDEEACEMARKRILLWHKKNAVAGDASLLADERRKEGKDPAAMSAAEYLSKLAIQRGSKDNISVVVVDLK
For `E109K`, “relative binding score” read 20.5%.
`V121T` — result for “relative binding score”: 1.08%.
`S87E` — result for “relative binding score”: -1.38%.
`R90Q`: “relative binding score” 31.1%.
`S87K`: “relative binding score” 0.143%.
`F5P`: “relative binding score” 24.7%.
For `T135V`, “relative binding score” read 3.52%.
`R163D`: “relative binding score” 6.71%.
`S104T`: “relative binding score” 63.9%.
For `D92Y`, “relative binding score” read 7.55%.
Under “relative binding score”, `T106P` is recorded as -5.06%.
Under “relative binding score”, `E109D` is recorded as 119%.
Under “relative binding score”, `N165A` is recorded as 8.65%.
`A158K`: “relative binding score” -18.3%.
Under “relative binding score”, `R113I` is recorded as 31%.
`R90Y` — result for “relative binding score”: 0.143%.
Under “relative binding score”, `R74I` is recorded as 1.62%.
For `T154D`, “relative binding score” read -21.3%.

Series 4
Target: RING finger protein unkempt homolog, zinc fingers 1-6, GST-SBP tag (UNK, Homo sapiens, UniProt Q9C0B0, residues 30-357)
UniProt Q9C0B0, sequence (30-357, looked up): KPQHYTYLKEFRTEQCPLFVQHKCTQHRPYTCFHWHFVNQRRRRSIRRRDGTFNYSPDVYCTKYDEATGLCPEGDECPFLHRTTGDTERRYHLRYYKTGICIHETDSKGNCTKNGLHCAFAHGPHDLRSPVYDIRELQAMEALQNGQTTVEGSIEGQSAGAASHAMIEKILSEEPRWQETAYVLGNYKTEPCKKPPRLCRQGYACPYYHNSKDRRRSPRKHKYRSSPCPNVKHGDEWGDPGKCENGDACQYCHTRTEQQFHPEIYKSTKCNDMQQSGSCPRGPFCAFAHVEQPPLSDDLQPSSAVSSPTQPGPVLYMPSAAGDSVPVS
Technique: RNA Bind-n-Seq
Form: RNA
Medium: in vitro
Concentration: not given
Notes: RNA with constant flanks, human and mouse sites, ends assumed
Relative to: input RNA pool
Direction: higher = stronger binding
Constant ends, left off below: GGGAGUUCUACAGUCCGACGAUC … CAACAGAGGAUUGAGCAUCA
`AUUUGUUUAGUGAAUGACCCUAGGCCCCAGCACAAGUACAACAAACUUUACACAGUGGAAUACUUAAGCAAUAUGGUUGGAGGGAGAAAAACUCUAUACAACAACCAGCCCAUUGACUUC` has a bound/input enrichment of 0.397 ratio.
With `AGGCCUUACGAGUGUGUGGAGUGUGGGAAGACAUUCAAGACCAAGUCGUCCCUUAUCUGUCAUCGUAGAUGUCACACGGGAGAGAAACCUUAUGAGUGCAGUGCAUGUGGUAAAGCCUUU` the bound/input enrichment was 0.341 ratio.
The bound/input enrichment of `UUGAAUAGUUACUUUAAAUCUCUGGGAAGCAGUGAUUUGAAAUUCUAAAGUUUAUUUUGGAGCAAAGGUCAACACAUCAUAGCACAGAGGCUAGGCCCAUUUUCAUGCAGCCUACAAGCU` is reported as 1.82 ratio.
For `AAGAUAAAACCAGAAAUACAUCCUGAAGAACGAAUGAACGGACAAGAAGUAUUUUAUCUGACUUACACCUCUGAAGAUGUGGAAGGGAAUGUUCAGCUGGAAACUGGAGAUAAAAUUAAC`, the bound/input enrichment was 0.204 ratio.
`UUGGCUUCAGUGCCCGCUGGAGCCUUUUCCCGCCUGCACAAGUUGGCACGACUGGACAUGACCUCCAACCGCCUAACCACCAUCCCUCCUGACCCACUCUUCUCACGUUUGCCACUGCUU` gave a bound/input enrichment of 0.235 ratio.
The bound/input enrichment of `UGGUAUCUCUUCUUAGUGUUCUAUUUAUCUUAUUUGCUAAUGGGAGCACUUCUUCCUUUGUUAGGCUGUGCUUUACUGAUAAAACCAAGUAUUGAAUAAAGAGAGUUAAUUAUCUUUUUA` is reported as 1.08 ratio.
`GUUUCCGCUGAGAAAAAUGCUCCCACAGAAGACGUGCAUGGUGGUGGGGACCACAGACACAUCCCGCUGUGUCAGUGACUGCUUGGCAGUGGCUUUCAUCCUUCAGCAAAUUCACACACG` gave a bound/input enrichment of 0.171 ratio.
`UGAAGAGCUACUAUGAAGAUCAGGGUAUCCCAGCCAGCAUCACGUUUUUCAGUCCCUCCGGCCUUAAAUACAGCCUCGAGUAUAUUCAGGCGUUAUCUGGCAGCAGCUUUGACCAGAUUA` has a bound/input enrichment of 0.266 ratio.
`ACUUUGAUUUUACAUGUUUUCUUGUAAAUAAGCCUGCCUUCCUACCUGGAAUUUGUGUGUGUGUGACUAAUACAUGUUCUACGAGUUAACUACUUUGGCAGUUUUAAUCAUUUCUUCUUU` has a bound/input enrichment of 0.202 ratio.
`GUGUGUAGUAACUACCACCCCACCCUCAAUUCAGAAUGGAACGUACCGCUUUUGCUGCUGUAGUACAGAUUUAUGUAAUGUCAACUUUACUGAGAACUUUCCACCCCCUGACACAACACC` gave a bound/input enrichment of 0.331 ratio.
For `CAUUUAAAGUGGCAAAGCUCUAAAGCGUUCUGAGUACUAAAUACAUUUUUAACUUGACUGUAGCUGCCUAUAAACUUUCAGGUAAAGGAAAAAGGGAAGUGCGGGUAGUGGAGAUUUUGC`, the bound/input enrichment was 0.422 ratio.

Series 5
Target: Sal-like protein 4, full length isoform A (SALL4, Homo sapiens, UniProt Q9UJQ4, residues 1-1053)
UniProt Q9UJQ4, sequence (whole entry, looked up): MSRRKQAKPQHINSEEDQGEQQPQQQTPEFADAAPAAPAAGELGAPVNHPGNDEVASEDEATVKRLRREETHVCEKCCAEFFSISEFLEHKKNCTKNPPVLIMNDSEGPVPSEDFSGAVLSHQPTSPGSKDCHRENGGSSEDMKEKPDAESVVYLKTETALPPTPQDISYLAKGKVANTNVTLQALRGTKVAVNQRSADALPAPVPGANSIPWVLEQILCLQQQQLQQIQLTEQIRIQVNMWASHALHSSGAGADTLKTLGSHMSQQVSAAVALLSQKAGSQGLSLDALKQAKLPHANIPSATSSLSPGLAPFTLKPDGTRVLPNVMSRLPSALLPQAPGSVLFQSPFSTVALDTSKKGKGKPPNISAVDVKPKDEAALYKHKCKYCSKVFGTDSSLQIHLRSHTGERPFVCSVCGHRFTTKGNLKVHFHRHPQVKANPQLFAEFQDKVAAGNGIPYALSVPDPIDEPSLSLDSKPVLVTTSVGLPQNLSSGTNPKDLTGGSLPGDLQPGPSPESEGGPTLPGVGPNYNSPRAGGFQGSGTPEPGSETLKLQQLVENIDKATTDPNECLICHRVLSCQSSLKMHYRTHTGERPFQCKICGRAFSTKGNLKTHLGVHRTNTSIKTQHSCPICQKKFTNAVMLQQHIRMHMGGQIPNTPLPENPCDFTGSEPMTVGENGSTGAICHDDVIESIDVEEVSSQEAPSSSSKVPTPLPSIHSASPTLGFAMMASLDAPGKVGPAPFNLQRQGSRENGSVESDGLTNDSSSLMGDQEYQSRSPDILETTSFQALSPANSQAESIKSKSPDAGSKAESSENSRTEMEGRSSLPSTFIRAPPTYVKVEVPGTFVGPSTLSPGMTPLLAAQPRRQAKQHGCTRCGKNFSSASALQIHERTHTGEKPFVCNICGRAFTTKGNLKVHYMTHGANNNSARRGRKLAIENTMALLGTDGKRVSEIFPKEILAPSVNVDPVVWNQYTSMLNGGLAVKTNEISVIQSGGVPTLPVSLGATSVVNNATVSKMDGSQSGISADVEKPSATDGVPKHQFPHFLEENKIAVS
Technique: universal PBM
Form: double-stranded DNA, one strand shown
Medium: in vitro
Concentration: 600 nM
Notes: 8-mer, flanks averaged, mean of replicates
Direction: higher = stronger binding
`GCCAGGAC` gave an E-score of -0.224.
With `CCTTATAC` the E-score was 0.168.
With `AAATGGCG` the E-score was 0.0142.
For `GGACACCA`, the E-score was -0.115.
`CGTAGCCA` has an E-score of -0.0459.
For `CAGCTGGG`, the E-score was -0.353.
`CGGACGCA` gave an E-score of -0.219.
`AGAGTACC` gave an E-score of -0.0002.
`GACCCTAC` gave an E-score of -0.245.
`GCGGATAC` gave an E-score of 0.0247.
For `AGTCAATG`, the E-score was 0.0731.
The E-score of `GACGAAAA` is reported as 0.206.
For `CTGGTACC`, the E-score was -0.314.
For `CGTTACAC`, the E-score was -0.0456.
`CTCTCCGA` has an E-score of -0.225.
`AAGAACGT` gave an E-score of 0.143.
The E-score of `AAGTATCA` is reported as 0.129.

A few entries again (series 1):
`B10 (TRIM63 RING domain)`: “lacZ reporter activity” 0.
Under “lacZ reporter activity”, `B8 (TRIM69 RING domain)` is recorded as 0.
`B2 (PHF21A RING domain)` — result for “lacZ reporter activity”: 0.
`B9 (MID1 RING domain)` — result for “lacZ reporter activity”: 0.
`FASPPDSNFVCSVCHGVLKRPARLPCSHIFCKKCILRWLARQKTCPCCRKEVKRKKVVH (RNF151 RING domain (UniProt Q2KHN1))`: “lacZ reporter activity” 0.
Under “lacZ reporter activity”, `B7 (RNF170 RING domain)` is recorded as 0.
Under “lacZ reporter activity”, `B1 (UHRF2 RING domain)` is recorded as 0.
`B3 (ZNF598 RING domain)` — result for “lacZ reporter activity”: 0.
For `DAIPSLSECQCGICMEILVEPVTLPCNHTLCKPCFQSTVEKASLCCPFCRRRVSSWTRYH (RNF168 RING domain (UniProt Q8IYW5))`, “lacZ reporter activity” read 0.
